Results collected from several papers.
Every numbered part comes from another study and shows a few of its results, in no order.

Set 1 — tested at: 1 µM; relative to: DMSO
Compound: Cc1ncc(-c2cc(Cl)ccc2F)cc1-n1c(=O)n(CC(N)=O)c2ccccc21
| cell line | conditions | viability [%] |
| --- | --- | --- |
| sample B colorectal tumour organoid | replicate 2 | 98.5 |
| sample C colorectal tumour organoid | replicate 2 | 106 |
| colorectal tumour organoids |  | 108 |
| sample C colorectal tumour organoid | replicate 1 | 106 |
| sample B colorectal tumour organoid | replicate 1 | 129 |
| sample BA colorectal tumour organoid |  | 122 |

Set 2 — read-out: enzyme activity; action: inhibitor; tested at: 0.5 µM; relative to: control
Target: Calcium/calmodulin-dependent protein kinase type II subunit alpha (CAMK2A, Homo sapiens, UniProt Q9UQM7)
Sequence of UniProt Q9UQM7 (whole entry, looked up): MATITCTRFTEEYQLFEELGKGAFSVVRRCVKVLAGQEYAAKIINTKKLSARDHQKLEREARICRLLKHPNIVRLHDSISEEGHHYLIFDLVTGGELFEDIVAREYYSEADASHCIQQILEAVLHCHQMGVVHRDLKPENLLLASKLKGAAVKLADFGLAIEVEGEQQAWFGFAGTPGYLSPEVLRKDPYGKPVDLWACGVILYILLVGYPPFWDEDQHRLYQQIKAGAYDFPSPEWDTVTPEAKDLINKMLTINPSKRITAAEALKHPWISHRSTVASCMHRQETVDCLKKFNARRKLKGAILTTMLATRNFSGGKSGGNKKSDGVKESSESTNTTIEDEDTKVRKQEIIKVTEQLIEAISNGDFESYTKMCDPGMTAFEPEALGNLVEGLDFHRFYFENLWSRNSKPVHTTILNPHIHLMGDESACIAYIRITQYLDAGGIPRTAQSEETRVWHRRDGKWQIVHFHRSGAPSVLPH
| SMILES | remaining activity [%] |
| --- | --- |
| CSc1nc(-c2ccnc(N[C@@H](C)c3ccccc3)c2)c(-c2ccc(F)cc2)[nH]1 (racemic) | 96.5 |
| O=C1Cc2c([nH]c3ccc([N+](=O)[O-])cc23)-c2ccccc2N1 | 88.4 |
| CC(=O)c1ccc(N2CCOCC2)cc1O | 104 |
| NC(=O)c1ccc(N(C(N)=O)c2c(F)cccc2F)nc1-c1ccc(F)cc1F | 90.9 |
| O=C1NC(=O)C(c2c[nH]c3ccccc23)=C1c1c[nH]c2ccccc12 | 85.3 |
| Cc1cc(Nc2nc(-c3ccccc3)nc3ccccc23)n[nH]1 | 108 |
| O=S(=O)(NCCNC/C=C/c1ccc(Br)cc1)c1cccc2cnccc12 | 102 |
| Oc1ccc(Nc2nc(-c3ccc(Cl)cc3)cs2)cc1 | 106 |
| N#CC(=C(N)Sc1ccc(N)cc1)c1ccccc1C(F)(F)F | 111 |
| CC(C)(C)n1nc(Cc2cccc3ccccc23)c2c(N)ncnc21 | 108 |
| CC#CC(=O)Nc1cc2c(Nc3ccc(F)c(Cl)c3)ncnc2cn1 | 108 |
| CCc1[nH]c(-c2ccc(OC)cc2)nc1-c1ccncc1 | 105 |
| Cc1ccc(NC2=CC(=O)c3sc(C)nc3C2=O)cc1 | 101 |
| Nc1nc(Nc2ccc(S(N)(=O)=O)cc2)nn1C(=O)c1c(F)cccc1F | 104 |
| Nc1ncnc2c1cnn2-c1ccccc1 | 105 |
| COc1ccc(S(=O)(=O)N(CCO)c2ccccc2CN(C)CC=Cc2ccc(Cl)cc2)cc1 | 107 |
| CC[n+]1c(/C=C/N(C)c2ccccc2)n(-c2ccccc2)c2ccc(-c3nc4ccccc4s3)cc21 | 103 |
| CCCC(=O)Oc1ccc2[nH]c(C(=O)c3cc4ccccc4[nH]3)cc2c1 | 87 |
| Nc1nccc(-c2c(-c3ccc(F)cc3)ncn2C2CCNCC2)n1 | 100 |
| Cc1cncc2cccc(S(=O)(=O)N3CCCN(C(=O)CN)C[C@@H]3C)c12 | 93.2 |
| Fc1ccc(-c2nc3n(c2-c2ccncc2)CCS3)cc1 | 106 |

Set 3 — host: mouse; medium: microsomes or S9; tested at: 2 µM; time: 0.5 h
| Compound | remaining compound [%] |
| --- | --- |
| COC(=O)c1ccc(S(C)(=O)=O)c(COCCn2cncn2)c1Cl | 80.5 |
| Cc1ccc(C)c(C[S+]([O-])Cc2cc(=O)n(C)c(=O)n2C)c1 (stereo not shown) | 6.4 |
| N#Cc1ncc(Br)cc1NC(=O)C(F)(F)F | > 99 |
| CN1CC[C@H](Oc2cc(N3Cc4ccccc4C3=O)ccc2Cl)C1 | 27.4 |
| Cn1c(=O)[nH]c(=O)c2c1nc(NC1CCCCC1)n2CC(=O)NC1CCCCC1 | 1.66 |
| Cl/C(=C/c1cccc2nccn12)c1nc2ccccc2s1 | 0.589 |
| COc1cccc(NC(=O)c2c(C)nc(C)c(C(=O)O)c2-c2ccc(Cl)cc2)c1 | 6 |
| COC(=O)c1[nH]cc(C(=O)C2CCNCC2)c1C | 75.5 |
| Cc1nc(-c2ccccc2)nc2sc3c(=O)[nH]cnc3c12 | 13.9 |
| Cc1ccccc1C1CC(=O)c2c(C)nc(N)nc2C1 (stereo not shown) | 16.4 |
| COc1ccc2c(c1)OCC(Cc1ccc(OC)c(O)c1)C2=O (stereo not shown) | 1.11 |
| CC(C)(C)c1cn2c3ccccc3nc2n1CCNC1CCCCC1 | 9.34 |

Set 4 — action: antagonist
Target: Beta-1 adrenergic receptor (ADRB1, Homo sapiens, UniProt P08588)
Sequence of UniProt P08588 (whole entry, looked up): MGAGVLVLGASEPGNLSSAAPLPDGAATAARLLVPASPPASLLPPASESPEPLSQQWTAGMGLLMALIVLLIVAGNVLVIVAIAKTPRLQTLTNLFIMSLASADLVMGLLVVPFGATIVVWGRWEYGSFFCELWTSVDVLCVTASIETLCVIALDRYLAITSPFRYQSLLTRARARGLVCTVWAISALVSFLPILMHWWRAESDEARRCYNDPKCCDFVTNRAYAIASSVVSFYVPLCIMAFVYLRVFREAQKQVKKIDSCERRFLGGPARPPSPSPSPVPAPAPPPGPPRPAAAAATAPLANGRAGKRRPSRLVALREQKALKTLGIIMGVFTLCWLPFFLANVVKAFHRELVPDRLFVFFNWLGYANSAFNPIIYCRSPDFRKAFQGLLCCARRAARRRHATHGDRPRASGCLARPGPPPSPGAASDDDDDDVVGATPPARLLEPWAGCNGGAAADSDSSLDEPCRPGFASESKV
| Structure (SMILES) | IC50 |
| --- | --- |
| c1ccc(-c2n[nH]c3ncc(-c4cn[nH]c4)nc23)cc1 | ≥ 100 µM |
| COc1ccccc1-c1nnc(SCc2cc(=O)oc3cc(O)ccc23)n1C | ≥ 100 µM |
| O=C(Cc1ccccc1)Nc1ccc([C@@H](O)[C@H]2COCC(=O)N2Cc2ccc(C(F)(F)F)cc2)cc1 | ≥ 100 µM |
| COc1ccc2c(Cn3nnc(-c4ccccc4C)n3)cc(=O)oc2c1 | ≥ 100 µM |
| CCOc1cccc(-c2cc(-c3nnc(S)n3CC)c3ccccc3n2)c1 | ≥ 100 µM |
| COc1ccc(-c2ccc3ccccc3n2)c(OC)c1OC | ≥ 100 µM |
| OC(COc1ccc(CN2CC(O)C2)cc1)CN1CCCCC1 (stereo not shown) | ≥ 100 µM |
| c1cc(N[C@@H]2CCNC2)nc(-c2cnc3ccc(-c4cn[nH]c4)cn23)c1 | ≥ 100 µM |
| O=C(COc1ccccc1)Nc1ccc([C@@H](O)[C@H]2COCC(=O)N2)cc1 | ≥ 100 µM |
| OC(COc1ccc(CN2CC(N3CCOCC3)C2)cc1)CN1CCCCC1 (stereo not shown) | ≥ 100 µM |
| O=c1ncn(CCC(F)(F)F)c2ccc(-c3ccccc3)nc12 | ≥ 100 µM |
| CN(c1ccccc1)c1cc(=O)c2ccnc(NCc3cnccn3)c2o1 | ≥ 100 µM |
| CCN(CC)C(=O)c1cc(-c2cnc(C(C)C)nc2)nc2c(C)c(C)ccc12 | ≥ 100 µM |
